{"data": "Measurements from different studies", "note": "Each numbered part is a random draw from the data of one study; scales do not carry over between parts."}
{"data": "Set 1", "target": "Centromere-binding protein 1, full length, N-terminal tag (CBF1, Saccharomyces cerevisiae, UniProt P17106, residues 1-351)", "method": "protein-binding microarray", "form": "double-stranded DNA, one strand shown", "medium": "in vitro", "tested at": "0.8 µM", "notes": "whole 60-bp probe, no competitor", "reading": "higher = stronger binding", "constant ends, left off below": "… GTCTTGATTCGCTTGACGCTGCTG", "UniProt P17106, sequence (whole entry, looked up)": "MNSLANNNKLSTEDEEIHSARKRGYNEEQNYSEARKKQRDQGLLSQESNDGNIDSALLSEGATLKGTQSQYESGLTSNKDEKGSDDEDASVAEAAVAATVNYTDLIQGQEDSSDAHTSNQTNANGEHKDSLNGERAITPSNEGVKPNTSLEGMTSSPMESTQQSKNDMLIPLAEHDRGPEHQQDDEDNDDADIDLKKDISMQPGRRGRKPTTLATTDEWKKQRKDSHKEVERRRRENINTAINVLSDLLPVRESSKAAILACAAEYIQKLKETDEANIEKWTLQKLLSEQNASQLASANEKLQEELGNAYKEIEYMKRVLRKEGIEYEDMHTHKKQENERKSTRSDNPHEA"}
{"Strand": "GAATCCGCTCGTCGTGGTGGCATGCGCTTTTTTTAG", "fluorescence intensity [a.u.]": 644}
{"Strand": "CTACGTCATGAATAGCACGTTTACCTATACGAATTC", "fluorescence intensity [a.u.]": 621}
{"Strand": "CTATAAACAATTCAACTGACATTAGATACATCATTC", "fluorescence intensity [a.u.]": 544}
{"Strand": "CTACACCAATGTTGCAGCGTGATTTAATTTTGATTC", "fluorescence intensity [a.u.]": 952}
{"Strand": "CTAAATGGACGACTCCACGTTGTAGTAGTTGTCTTC", "fluorescence intensity [a.u.]": 502}
{"Strand": "GAATACATTTTTTCTTGCGTGCACGAAGGTTAGTAG", "fluorescence intensity [a.u.]": 544}
{"Strand": "TGTACGAAGCTATATCTGATGCTTATAGTAGTTAGG", "fluorescence intensity [a.u.]": 524}
{"Strand": "GAAATCTCGGAAGAACACCACATGATGCAAGTTTAG", "fluorescence intensity [a.u.]": 1010}
{"Strand": "TGTACGAAGCTATAATGGGTGATTATAGTAGTTAGG", "fluorescence intensity [a.u.]": 529}
{"Strand": "GAATTCTGTTACCCGCTCGTGATACCTGACGACTAG", "fluorescence intensity [a.u.]": 909}
{"Strand": "GAAAAAGTGAGTAAGCATGTGATGGTACCTTCATAG", "fluorescence intensity [a.u.]": 1100}
{"Strand": "CTATTCCATATTCCGCACGTCACATTGCCAAATTTC", "fluorescence intensity [a.u.]": 887}
{"Strand": "CTAATTTTGTAGGTGCACGTTTGCAACTTTATTTTC", "fluorescence intensity [a.u.]": 557}
{"Strand": "GAAGTCAATTTCAAACGTGAGGTATGGGTTCCATAG", "fluorescence intensity [a.u.]": 534}
{"Strand": "GAAGGCCTAAAACTGGTGGTGACAGCTGAAGTGTAG", "fluorescence intensity [a.u.]": 478}
{"Strand": "GAAGGAGCAGTGATGACCGTGACAGCTGAAATATAG", "fluorescence intensity [a.u.]": 680}
{"data": "Set 2", "target": "Prothrombin, mature alpha-thrombin (F2, Homo sapiens, UniProt P00734)", "method": "aptamer microarray, sandwich", "form": "DNA with 2'F-ANA", "medium": "in vitro", "tested at": "200 nM", "notes": "whole 15-mer aptamer, many near background", "with": "Cy3 exosite-II aptamer, 400 nM", "reading": "higher = stronger binding", "strand": "GGTTGGTGTGGTTGG"}
{"Modification": "2'F-ANA at 2 7 8 10 11 12 14", "mean fluorescence intensity": "91.9 a.u."}
{"Modification": "2'F-ANA at 1 3 5 9 11", "mean fluorescence intensity": "59.4 a.u."}
{"Modification": "2'F-ANA at 1 2 3 4 8 10 11", "mean fluorescence intensity": "55.8 a.u."}
{"Modification": "2'F-ANA at 1 2 3 4 5 7 8 9 10 11", "mean fluorescence intensity": "77.1 a.u."}
{"Modification": "2'F-ANA at 1 3 5 6 7 8 9 11 13", "mean fluorescence intensity": "52 a.u."}
{"Modification": "2'F-ANA at 1 3 4 5 7 15", "mean fluorescence intensity": "62.5 a.u."}
{"Modification": "2'F-ANA at 1 2 3 4 5 7 9 11 12 13", "mean fluorescence intensity": "68.5 a.u."}
{"Modification": "2'F-ANA at 3 4 5 6 8 9 11 12 15", "mean fluorescence intensity": "156 a.u."}
{"Modification": "2'F-ANA at 1 2 3 4 7 9 13", "mean fluorescence intensity": "107 a.u."}
{"Modification": "2'F-ANA at 2 3 6 10 11", "mean fluorescence intensity": "385 a.u."}
{"Modification": "2'F-ANA at 1 7 9 11 14 15", "mean fluorescence intensity": "99 a.u."}
{"Modification": "2'F-ANA at 2 3 4 8 9 12 14", "mean fluorescence intensity": "362 a.u."}
{"Modification": "2'F-ANA at 1 2 4 7 9 13", "mean fluorescence intensity": "75.3 a.u."}
{"Modification": "2'F-ANA at 2 7 8 9 10", "mean fluorescence intensity": "185 a.u."}
{"Modification": "2'F-ANA at 2 3 4 5 6 7 13 14 15", "mean fluorescence intensity": "50 a.u."}
{"Modification": "2'F-ANA at 2 3 4 5 6 7 8 13 14", "mean fluorescence intensity": "52.6 a.u."}
{"Modification": "2'F-ANA at 1 3 6 7 8 10 11 12 13 14 15", "mean fluorescence intensity": "98.4 a.u."}
{"Modification": "2'F-ANA at 5 7 8 10 11 12 13 14", "mean fluorescence intensity": "45.9 a.u."}
{"Modification": "2'F-ANA at 6 7 10 11", "mean fluorescence intensity": "156 a.u."}
{"Modification": "2'F-ANA at 1 2 6 7 12 13 14 15", "mean fluorescence intensity": "63.1 a.u."}
{"Modification": "2'F-ANA at 2 3 5 6 7 9 10 14 15", "mean fluorescence intensity": "49.5 a.u."}
{"Modification": "2'F-ANA at 1 2 4 5 9 11 12 13 14 15", "mean fluorescence intensity": "76.2 a.u."}
{"Modification": "2'F-ANA at 8 9 10 12 13 14 15", "mean fluorescence intensity": "121 a.u."}
{"data": "Set 3", "target": "Interferon regulatory factor 5, full length, phosphomimetic (IRF5, Homo sapiens, UniProt Q13568-2, residues 1-514, K96S/S451D/S453D/S456D/S462D)", "method": "protein-binding microarray", "form": "double-stranded DNA, one strand shown", "medium": "in vitro", "tested at": "250 nM", "notes": "60-bp whole probe", "with": "salmon DNA 0.4 mg/ml", "relative to": "random background probes", "reading": "higher = stronger binding", "constant ends, left off below": "GCCTAGCAC … GTCTTGATTCGCTTGACGCTGCTG"}
{"Strand": "TCATGCATCTGATTTCTCACTGTGCTA", "log fluorescence": "0.822 z-score"}
{"Strand": "TCATTTCTCTTATTCTAACTGTGCTAG", "log fluorescence": "1.96 z-score"}
{"Strand": "GACGGTATCGGGACTCGGGACGTGCTA", "log fluorescence": "1.22 z-score"}
{"Strand": "GACGGTCTCGGTCTCCGGACGTGCTAG", "log fluorescence": "0.289 z-score"}
{"Strand": "GATGATTTCAGACTGGAGACGTGCTAG", "log fluorescence": "0.245 z-score"}
{"Strand": "GACGAACTGAGTCTCGAAACGTGCTAG", "log fluorescence": "0.396 z-score"}
{"Strand": "TTAGTTCTCCTACTGCTTTAGTGCTAG", "log fluorescence": "0.453 z-score"}
{"Strand": "GATGGACTGGACTTTCGGGACGTGCTA", "log fluorescence": "4.33 z-score"}
{"Strand": "TTAGGTATCGGGCTCGGTTAGTGCTAG", "log fluorescence": "1.69 z-score"}
{"Strand": "CTCTTTGTTTCACTTCCTGGTGTGCTA", "log fluorescence": "4.11 z-score"}
{"Strand": "CACTATTTAAGGCCTATGCACGTGCTA", "log fluorescence": "0.107 z-score"}
{"Strand": "GACGGTCTCGGTCACGGGACGTGCTAG", "log fluorescence": "0.103 z-score"}
{"Strand": "GACCGTTTCCTTTTCCTGACGTGCTAG", "log fluorescence": "1.23 z-score"}
{"Strand": "GACGATTTCGGTCTCGAGACGTGCTAG", "log fluorescence": "6.84 z-score"}
{"Strand": "TTAGGACTGGGGTTTAGGTTAGTGCTA", "log fluorescence": "-0.173 z-score"}
{"Strand": "TCATTTTTTTTTTCTACACTGTGCTAG", "log fluorescence": "1.29 z-score"}
{"Strand": "GATGAACTGAGTCTCGAGACGTGCTAG", "log fluorescence": "0.175 z-score"}
{"Strand": "TTAGGTATTCTTATCCTTTAGTGCTAG", "log fluorescence": "0.142 z-score"}
{"data": "Set 4", "target": "RNA binding protein fox-1 homolog 2, RRM domain, GST-SBP tag (RBFOX2, Homo sapiens, UniProt O43251-10, residues 100-194)", "method": "RNA Bind-n-Seq", "form": "RNA", "medium": "in vitro", "tested at": "365 nM", "notes": "natural RNA segment, single round, ends assumed", "relative to": "no-protein control", "reading": "higher = stronger binding", "constant ends, left off below": "GGGAGUUCUACAGUCCGACGAUC … UGGAAUUCUCGGGUGCCAA", "Construct (chain)": "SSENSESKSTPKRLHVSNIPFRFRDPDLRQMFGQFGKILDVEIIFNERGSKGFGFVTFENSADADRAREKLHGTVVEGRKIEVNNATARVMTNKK"}
{"Strand": "UGGACUGCCAUCUUGGCAGACCUGAACUUUGCUGAGCCUGAUUUUCACAAAGGAGUAGGCCAUGUAGGAGAAAGGGAUAGUGACUUAGUCUUAAGGUGACUAAGAUUCAC", "RBNS enrichment (R)": 0.798}
{"Strand": "GUUGAAGGAGGUGUUGGGUGUUUUUAAAUAUUUAGUUAAUAUAUUCCUCAUGGACAUAAAAUACAUUCUUAGUUAUUAUCAUUAUGUCAAACAAGAAUGGCAAGCCUAAG", "RBNS enrichment (R)": 0.855}
{"Strand": "AUUCCUCUUGCCCAACGGCAUAUGGAGUGUCCUUAUUGCUAAAAAGGAUUCCGUCUCCUUCAAAGAAGUUUUAUUUUUGGUCCAGAGUACUUGUUUUCCCGAUGUGUCCA", "RBNS enrichment (R)": 0.474}
{"Strand": "UACUACUUUCUCAAAAUGGAAGCCCUUAAAGGUGCUUUGAUACUGAAGGACACAAAUGUGACCGUCCAUCCUCCUUUAGAGUUGCAUGACUUGGACACGGUAACUGUUGC", "RBNS enrichment (R)": 8.49}
{"Strand": "UCACUUGGAACAUUAGAGCUCCUGAAGCCUGUCUGUCUUAAGACGUUGGGAAAGCCUCGUGUUGAAAGCCGGGGGAGCUUAAAUGAUCCAGGUGGUAGCUAGGGACCGUC", "RBNS enrichment (R)": 0.667}
{"Strand": "GCUUAAGUGCUAAGUCAGGUGUGGAUCCACAGGAGGGUUCCAACAGAGUGUUUCCUCCACUGUAUACUGUCACAGACUAUCAUCAUUGCUUUGUGGCUGGUUUUGUUUUU", "RBNS enrichment (R)": 0.447}
{"Strand": "GCCCGUUGCUGGCGAUGGGCCCAUGCCCCCUCUCCAGGCUCUCUAGAGGCAGGCAGGUCCUUGGAAUCCCCAGCCUGCAAGCAGAGGCUGGCCAGCUCCCCAGCUCAGCA", "RBNS enrichment (R)": 3.13}
{"Strand": "UUACAGUGGCAUGAUGGUGACCUGUGCAGUCACUGAGCUGUAGGAGUGAGGCAUGUGCUGCACGUCCCUGUCGUACUUAGAGACCUGGCCGGUGCCCUGCGCGGGGCCUC", "RBNS enrichment (R)": 38}
{"Strand": "AAGUAUGGGUAAAAAGGCAAGUCACUAGUUUGAGAUGAAAACUAAAAUUUUCAUGGUAAAAUGCCAGCAUGUAUGUACUUGUGUAGUGUGUACUUCUAAACAGAGAAGGC", "RBNS enrichment (R)": 21.9}
{"Strand": "GCAGCUCCCAGCAUGCUCCGUGAUGUUCAGUGGGCAGCAUUACCCCCUCUGCUGCCUCCCGCCCCCGCUUAUCCAGGCGUGCACCAUGCAGCAGCUGCCUGUGCCCUAUC", "RBNS enrichment (R)": 10.8}
{"Strand": "AGGUGGCCUAGGUCCUGGAGAUGAGCACCCUCUCUCUGGCCUUUAGGGAGUCCCCUCUUAGGACAGGCACUGCCCAGCAGCAAGGGCAGCAGAGUUGGGUGCUAAGAUCC", "RBNS enrichment (R)": 0.248}
{"Strand": "UAAAGAAAUGUGCCUAAAGUAUUCUUUUCUGGAAUAAUUUGUAUGUUCUUUUAUAAAGAUAUGGAUUGGUUUACCAGCUGUUUAAAAAAAAAAACAUGUGUCCUAGCUGG", "RBNS enrichment (R)": 0.713}
